Measurements pooled from the literature.
Lines come from different studies, so protocols differ. Values joined by “and” are separate records of one study, mostly repeats; a detail may differ. Numbers after ± are the reported error.

| Molecule | target or system | test | test system | conditions | scale | quantity | result |
| --- | --- | --- | --- | --- | --- | --- | --- |
| human nucleophosmin |  | far-UV CD, CDSSTR | Tris buffer, NaCl | pH 7.5, room temperature |  | beta-strand content | 37% |
| CCCC[C@H](NC(=O)COCCOCCNC(=O)CN1CCN(CC(=O)O)CCN(CC(=O)O)CC1)C(=O)N[C@H]1CC(=O)NCCCC[C@@H](C(N)=O)NC(=O)[C@H](Cc2c[nH]c3ccccc23)NC(=O)[C@H](CCCNC(=N)N)NC(=O)[C@@H](Cc2ccccc2)NC(=O)[C@H](Cc2c[nH]cn2)NC1=O [technetium-99m labelled] |  |  | C57 mouse, lung | intravenous, 0.037 MBq, 4 h |  | tissue uptake | 0.12 ± 0.07 %ID/g |
| C=C1CC[C@H](OCCCNC(=O)CCOCCOCCOCCOCCOCCOCCOCCOCCOCCOCCOCCOCCOCCOCCOCCOCCOCCOCCOCCOCCOCCOCCOCCOCCOCCOCCOCCOCCOCCOCCOCCOCCOCCOCCOCCOCCNC(=O)CCN2C(=O)CC(SC[C@H](NC(=O)[C@H](Cc3ccccc3)NC(=O)[C@H](CC(N)=O)NC(=O)[C@H](Cc3c[nH]cn3)NC(=O)[C@@H](NC(=O)[C@H](CC(=O)O)NC(=O)[C@H](CCC(N)=O)NC(=O)[C@H](CC(C)C)NC(=O)[C@H](CCCCN)NC(=O)[C@H](CCCCN)NC(=O)[C@H](CCCNC(=N)N)NC(=O)[C@H](CC(C)C)NC(=O)[C@H](Cc3c[nH]c4ccccc34)NC(=O)[C@H](CCC(=O)O)NC(=O)[C@@H](NC(=O)[C@H](CCCNC(=N)N)NC(=O)[C@H](CCC(=O)O)NC(=O)[C@H](CCSC)NC(=O)[C@H](CO)NC(=O)[C@H](CC(N)=O)NC(=O)[C@H](CC(C)C)NC(=O)[C@H](Cc3c[nH]cn3)NC(=O)[C@H](CCCCN)NC(=O)CNC(=O)[C@H](CC(C)C)NC(=O)[C@H](CC(N)=O)NC(=O)[C@H](Cc3c[nH]cn3)NC(=O)[C@H](CCSC)NC(=O)[C@H](CC(C)C)NC(=O)[C@H](CCC(N)=O)NC(=O)[C@@H](NC(=O)[C@H](CCC(=O)O)NC(=O)[C@H](CO)NC(=O)[C@@H](NC(=O)[C@@H](N)CO)C(C)C)[C@@H](C)CC)C(C)C)C(C)C)C(=O)O)C2=O)C/C1=C/C=C1\CCC[C@]2(C)[C@@H]([C@H](C)CCCC(C)(C)O)CC[C@@H]12 (stereo partly drawn) |  |  | male cynomolgus monkey, plasma | subcutaneous, 0.007 mg/kg, single dose |  | half-life | 24 h |
| C=CC(=O)Nc1cccc(Cn2ncc3cnc(Nc4cnn(CCOC)c4)nc32)c1 | PIM3 human | binding, KINOMEscan |  | 100 nM | lower = stronger binding | percent of control | 99% |
| CC(C)C[C@H](NC(=O)[C@H](Cc1ccc(O)cc1)NC(=O)[C@@H](CCCNC(=N)N)NC(=O)[C@@H](CO)NC(=O)[C@H](Cc1ccccc1)NC(=O)[C@H](CC1CCCCC1)NC(=O)[C@H](CC(=O)O)NC(=O)CN1CCN(CC(=O)O)CCN(CC(=O)O)CCN(CC(=O)O)CC1)C(=O)N[C@@H](Cc1c[nH]c2ccccc12)C(=O)N[C@@H](CO)C(=O)O [copper-64 labelled] |  |  | human, heart | concentration not given, 24 h |  | activity concentration | 366 Bq/mL and 297 Bq/mL and 506 Bq/mL and 361 Bq/mL and 535 Bq/mL and 459 Bq/mL |
| CC(C)C[C@H](NC(=O)[C@@H](CCCCNC(=O)[C@@H](Cc1ccccc1)NC(=O)CCCCCNC(=O)CN1CCN(CC(=O)O)CCN(CC(=O)O)CCN(CC(=O)O)CC1)NC(=O)[C@H](Cc1ccc(O)cc1)NC(=O)[C@H](CO)NC(=O)[C@H](Cc1c[nH]c2ccccc12)NC(=O)[C@H](Cc1c[nH]cn1)NC(=O)[C@@H]1CCC(=O)N1)C(=O)N[C@@H](CCCNC(=N)N)C(=O)N1CCC[C@H]1C(=O)NCC(N)=O [indium-111 labelled] |  |  | athymic nude mouse, female, intestines | intravenous, 0.037 MBq, 2 h |  | tissue uptake | 6.01 ± 6.69 %ID |
| Nc1ncc(-c2cc(-c3cnn(CC(F)(F)F)c3)ncc2F)nc1C(=O)NC1CNCC(F)C1 (stereo not drawn) | LOK | KINOMEscan competition binding |  | 1 µM | reference: DMSO control | remaining binding | 53% |
| COC1CN([C@H]2CC[C@H]([C@@]3(C)Oc4c(Cl)cc(C(=O)NCc5c(SC)cc(C)[nH]c5=O)c(C)c4O3)CC2)C1 |  | RNA-seq, item: RUNX1T1 mouse homolog | mouse, HT-1376 xenograft, whole blood | dose not given | reference: vehicle | log2 fold change | 3.53 |
| C[C@@H](O)[C@@H]1NC(=O)[C@H](CCCCN)NC(=O)[C@@H](Cc2c[nH]c3ccccc23)NC(=O)[C@H](Cc2ccc(O)cc2)NC(=O)[C@@H](NC(=O)[C@@H](Cc2ccccc2)NC(=O)CN2CCN(CC(=O)O)CCN(C(=O)CCNC(=O)c3ncn4c(=O)n(C)nnc34)CCN(CC(=O)O)CC2)CSSC[C@@H](C(=O)N[C@H](CO)[C@@H](C)O)NC1=O [gallium-68 labelled] |  | ex vivo gamma counting | mouse, HCT116-WT/SSTR2 xenografts, blood | intravenous, 2 nmol, 1 h |  | tissue uptake | 0.35 ± 0.15 %ID/g |
| Cc1ncsc1-c1ccc(C(C)NC(=O)C2CC(O)CN2C(=O)C(NC(=O)CCCCCCCCCCN2CCCC(Nc3ncc(Cl)c(Nc4ccccc4S(=O)(=O)C(C)C)n3)C2)C(C)(C)C)cc1 (stereo not drawn) | 22Rv1 | RNA-seq, item: ZNF132 mRNA |  | concentration not given | reference: DMSO | log2 fold change | -1.43 |
| CC(C)C[C@H](NC(=O)[C@@H](CCCCNC(=O)CCCCCCCCCCNC(=O)CN1CCN(CC(=O)O)CCN(CC(=O)O)CCN(CC(=O)O)CC1)NC(=O)[C@H](Cc1ccc(O)cc1)NC(=O)[C@H](CO)NC(=O)[C@H](Cc1c[nH]c2ccccc12)NC(=O)[C@H](Cc1cnc[nH]1)NC(=O)[C@@H]1CCC(=O)N1)C(=O)N[C@@H](CCCN=C(N)N)C(=O)N1CCC[C@H]1C(=O)NCC(N)=O [indium-111 labelled] |  |  | athymic nude mouse, female, whole blood | intravenous, 0.037 MBq, 1 h |  | tissue uptake | 3.14 ± 0.77 %ID/g |
| C[C@@H](O)[C@@H]1NC(=O)[C@H](CCCCN)NC(=O)[C@@H](Cc2c[nH]c3ccccc23)NC(=O)[C@H](Cc2ccc(O)cc2)NC(=O)[C@@H](NC(=O)[C@@H](Cc2ccccc2)NC(=O)CN2CCN(CC(=O)O)CCN(CC(=O)O)CCN(CC(=O)O)CC2)CSSC[C@@H](C(=O)N[C@H](CO)[C@@H](C)O)NC1=O [gallium-67 labelled] |  | gamma counting | ICR mice, male, muscle | iv, 11 kBq/mouse, 3 h |  | tissue uptake | 0.08 ± 0.03 %ID/g |

A few entries again:
| Molecule | target or system | test | test system | conditions | scale | quantity | result |
| --- | --- | --- | --- | --- | --- | --- | --- |
| C[C@@H](O)[C@@H]1NC(=O)[C@H](CCCCN)NC(=O)[C@@H](Cc2c[nH]c3ccccc23)NC(=O)[C@H](Cc2ccc(O)cc2)NC(=O)[C@@H](NC(=O)[C@@H](Cc2ccccc2)NC(=O)CN2CCN(CC(=O)O)CCN(CC(=O)O)CCN(CC(=O)O)CC2)CSSC[C@@H](C(=O)N[C@H](CO)[C@@H](C)O)NC1=O [gallium-67 labelled] |  | gamma counting | ICR mice, male, muscle | iv, 11 kBq/mouse, 3 h |  | tissue uptake | 0.08 ± 0.03 %ID/g |
